Results gathered from unrelated publications.
Compare with care: the assays were run in different laboratories.
TDP1: Tyrosyl-DNA phosphodiesterase 1 (TDP1, Homo sapiens, UniProt Q9NUW8)
Sequence of UniProt Q9NUW8 (whole entry, looked up): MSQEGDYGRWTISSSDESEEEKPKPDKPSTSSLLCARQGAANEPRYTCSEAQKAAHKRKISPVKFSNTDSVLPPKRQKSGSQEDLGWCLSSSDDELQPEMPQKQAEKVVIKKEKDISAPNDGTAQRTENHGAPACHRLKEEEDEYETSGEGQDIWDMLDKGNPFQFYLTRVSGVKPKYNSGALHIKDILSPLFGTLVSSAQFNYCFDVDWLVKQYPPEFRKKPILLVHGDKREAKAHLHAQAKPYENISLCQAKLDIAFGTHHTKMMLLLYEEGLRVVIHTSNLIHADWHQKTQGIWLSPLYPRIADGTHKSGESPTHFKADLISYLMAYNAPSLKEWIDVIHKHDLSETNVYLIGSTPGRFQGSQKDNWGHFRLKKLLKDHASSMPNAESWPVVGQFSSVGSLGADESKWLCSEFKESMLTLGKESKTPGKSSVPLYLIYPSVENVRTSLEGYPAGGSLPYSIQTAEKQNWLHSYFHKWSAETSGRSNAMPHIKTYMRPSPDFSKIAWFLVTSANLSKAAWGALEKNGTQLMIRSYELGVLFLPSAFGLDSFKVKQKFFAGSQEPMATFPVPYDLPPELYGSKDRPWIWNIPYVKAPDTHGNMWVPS
DNA dC->dU-editing enzyme APOBEC-3B: DNA dC->dU-editing enzyme APOBEC-3B (Homo sapiens, UniProt Q9UH17)
Sequence of UniProt Q9UH17 (whole entry, looked up): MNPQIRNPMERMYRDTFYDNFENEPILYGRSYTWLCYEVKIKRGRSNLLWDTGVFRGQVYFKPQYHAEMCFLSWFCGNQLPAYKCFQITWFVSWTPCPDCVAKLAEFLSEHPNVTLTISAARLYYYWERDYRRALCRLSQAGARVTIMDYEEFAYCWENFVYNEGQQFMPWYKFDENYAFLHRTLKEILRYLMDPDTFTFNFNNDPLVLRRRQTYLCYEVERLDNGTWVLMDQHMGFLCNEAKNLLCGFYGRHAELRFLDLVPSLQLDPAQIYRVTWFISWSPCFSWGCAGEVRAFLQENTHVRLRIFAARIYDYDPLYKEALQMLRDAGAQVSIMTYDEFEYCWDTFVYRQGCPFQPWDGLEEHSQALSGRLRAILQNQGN
Uncharacterized protein: Uncharacterized protein (Trypanosoma brucei brucei, UniProt Q386Q8)
ppa: Inorganic pyrophosphatase (ppa, Escherichia coli, UniProt P0A7A9)
Sequence of UniProt P0A7A9 (whole entry, looked up): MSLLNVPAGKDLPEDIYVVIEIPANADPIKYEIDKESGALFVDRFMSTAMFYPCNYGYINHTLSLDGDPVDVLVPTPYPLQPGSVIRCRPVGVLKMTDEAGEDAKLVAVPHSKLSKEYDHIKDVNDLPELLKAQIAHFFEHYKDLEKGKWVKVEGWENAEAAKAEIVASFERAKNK
Sequence of UniProt P23458 (whole entry, looked up): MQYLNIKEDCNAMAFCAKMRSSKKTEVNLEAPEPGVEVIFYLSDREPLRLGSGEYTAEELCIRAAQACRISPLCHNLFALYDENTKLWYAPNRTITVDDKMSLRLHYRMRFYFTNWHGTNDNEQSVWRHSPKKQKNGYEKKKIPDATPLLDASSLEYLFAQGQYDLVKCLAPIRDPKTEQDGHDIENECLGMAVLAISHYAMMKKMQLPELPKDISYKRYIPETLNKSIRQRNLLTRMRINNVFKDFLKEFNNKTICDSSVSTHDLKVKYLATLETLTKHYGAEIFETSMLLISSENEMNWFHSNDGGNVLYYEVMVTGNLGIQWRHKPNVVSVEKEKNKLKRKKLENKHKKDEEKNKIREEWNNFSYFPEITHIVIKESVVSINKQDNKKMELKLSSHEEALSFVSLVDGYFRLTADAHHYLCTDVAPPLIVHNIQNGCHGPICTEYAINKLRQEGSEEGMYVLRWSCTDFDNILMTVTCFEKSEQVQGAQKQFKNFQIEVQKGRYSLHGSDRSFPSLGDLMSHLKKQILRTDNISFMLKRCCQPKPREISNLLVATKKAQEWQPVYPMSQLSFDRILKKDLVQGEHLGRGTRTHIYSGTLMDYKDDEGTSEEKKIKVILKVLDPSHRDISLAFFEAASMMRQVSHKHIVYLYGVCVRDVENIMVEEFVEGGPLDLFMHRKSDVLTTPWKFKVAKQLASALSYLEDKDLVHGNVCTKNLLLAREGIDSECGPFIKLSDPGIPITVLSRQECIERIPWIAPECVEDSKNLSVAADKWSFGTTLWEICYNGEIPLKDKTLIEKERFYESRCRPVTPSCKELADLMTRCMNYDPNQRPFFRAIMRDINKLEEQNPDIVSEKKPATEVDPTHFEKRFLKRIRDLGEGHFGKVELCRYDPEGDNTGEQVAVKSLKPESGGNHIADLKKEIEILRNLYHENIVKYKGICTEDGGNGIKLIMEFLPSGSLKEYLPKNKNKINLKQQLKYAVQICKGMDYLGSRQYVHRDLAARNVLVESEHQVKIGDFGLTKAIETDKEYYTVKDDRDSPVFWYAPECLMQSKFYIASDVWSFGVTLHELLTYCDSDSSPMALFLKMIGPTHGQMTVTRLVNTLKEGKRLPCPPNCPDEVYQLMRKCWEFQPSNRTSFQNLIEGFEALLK
Sequence of UniProt Q08499 (whole entry, looked up): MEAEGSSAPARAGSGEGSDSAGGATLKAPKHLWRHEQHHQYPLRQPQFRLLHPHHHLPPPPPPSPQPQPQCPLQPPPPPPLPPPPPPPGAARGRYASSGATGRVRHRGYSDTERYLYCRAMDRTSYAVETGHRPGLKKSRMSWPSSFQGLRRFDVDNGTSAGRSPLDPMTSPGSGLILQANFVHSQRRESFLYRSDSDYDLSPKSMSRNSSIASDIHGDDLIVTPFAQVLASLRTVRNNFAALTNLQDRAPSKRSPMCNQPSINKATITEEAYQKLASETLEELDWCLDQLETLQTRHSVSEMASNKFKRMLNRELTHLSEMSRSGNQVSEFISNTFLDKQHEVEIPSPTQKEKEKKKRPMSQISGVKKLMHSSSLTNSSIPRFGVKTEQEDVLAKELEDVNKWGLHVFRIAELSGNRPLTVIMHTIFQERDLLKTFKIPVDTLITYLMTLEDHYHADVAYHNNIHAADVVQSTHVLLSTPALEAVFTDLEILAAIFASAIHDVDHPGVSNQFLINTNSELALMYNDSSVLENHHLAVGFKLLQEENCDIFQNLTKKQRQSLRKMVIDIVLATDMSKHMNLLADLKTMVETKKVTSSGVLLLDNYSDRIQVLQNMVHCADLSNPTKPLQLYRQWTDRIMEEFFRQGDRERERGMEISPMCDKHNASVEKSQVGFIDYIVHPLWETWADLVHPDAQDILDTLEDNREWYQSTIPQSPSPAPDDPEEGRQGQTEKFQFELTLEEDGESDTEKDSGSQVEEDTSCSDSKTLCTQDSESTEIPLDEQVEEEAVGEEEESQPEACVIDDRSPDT
Sequence of UniProt Q01650 (whole entry, looked up): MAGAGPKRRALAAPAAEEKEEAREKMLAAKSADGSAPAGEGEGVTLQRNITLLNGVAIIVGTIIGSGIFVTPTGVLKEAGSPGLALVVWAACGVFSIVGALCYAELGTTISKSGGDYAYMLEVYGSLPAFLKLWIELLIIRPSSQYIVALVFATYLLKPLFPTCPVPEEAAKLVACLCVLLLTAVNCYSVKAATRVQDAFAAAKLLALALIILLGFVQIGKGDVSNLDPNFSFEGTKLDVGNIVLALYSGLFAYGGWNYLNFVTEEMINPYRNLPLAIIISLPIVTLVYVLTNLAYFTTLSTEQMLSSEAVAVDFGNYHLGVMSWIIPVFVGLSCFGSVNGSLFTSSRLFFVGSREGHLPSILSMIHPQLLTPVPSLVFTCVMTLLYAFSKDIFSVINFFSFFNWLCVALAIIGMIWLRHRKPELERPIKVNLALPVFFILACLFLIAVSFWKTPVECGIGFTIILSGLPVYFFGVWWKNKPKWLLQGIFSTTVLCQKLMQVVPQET
Sequence of UniProt O00329 (whole entry, looked up): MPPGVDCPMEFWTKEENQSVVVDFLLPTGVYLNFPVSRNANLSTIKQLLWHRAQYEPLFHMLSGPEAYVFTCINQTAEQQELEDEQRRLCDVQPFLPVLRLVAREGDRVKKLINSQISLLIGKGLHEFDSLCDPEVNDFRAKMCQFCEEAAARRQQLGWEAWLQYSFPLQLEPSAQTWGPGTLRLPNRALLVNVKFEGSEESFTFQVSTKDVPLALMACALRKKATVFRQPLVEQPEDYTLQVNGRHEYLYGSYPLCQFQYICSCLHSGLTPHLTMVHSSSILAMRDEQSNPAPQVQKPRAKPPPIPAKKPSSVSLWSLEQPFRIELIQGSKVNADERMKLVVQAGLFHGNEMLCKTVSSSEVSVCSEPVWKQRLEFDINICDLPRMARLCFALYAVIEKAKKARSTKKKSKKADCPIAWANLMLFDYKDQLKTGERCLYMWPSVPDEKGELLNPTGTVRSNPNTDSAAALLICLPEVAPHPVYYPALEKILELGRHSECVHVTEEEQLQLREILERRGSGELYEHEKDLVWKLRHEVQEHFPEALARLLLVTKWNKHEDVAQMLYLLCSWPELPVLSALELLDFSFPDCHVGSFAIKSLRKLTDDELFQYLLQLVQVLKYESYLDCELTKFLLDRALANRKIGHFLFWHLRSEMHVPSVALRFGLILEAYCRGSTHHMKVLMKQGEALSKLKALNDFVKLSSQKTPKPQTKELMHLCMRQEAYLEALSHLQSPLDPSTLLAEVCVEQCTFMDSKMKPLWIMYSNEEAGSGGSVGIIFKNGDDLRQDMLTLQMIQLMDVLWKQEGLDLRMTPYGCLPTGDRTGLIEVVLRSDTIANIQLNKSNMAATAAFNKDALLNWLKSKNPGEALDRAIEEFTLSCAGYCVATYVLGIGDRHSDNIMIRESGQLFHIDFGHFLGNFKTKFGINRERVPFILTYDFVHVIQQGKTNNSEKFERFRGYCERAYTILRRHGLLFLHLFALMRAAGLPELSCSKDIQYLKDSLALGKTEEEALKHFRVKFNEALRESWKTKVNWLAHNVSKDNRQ

SMILES	target	assay	test system	conditions	measurement	result
Cc1cc(C=NOCc2ccc(-c3nc4cc(-c5ccccc5)ccn4c3Nc3ccc(C(=O)O)cc3)cc2)c(C)n1-c1ccncc1	TDP1	enzyme activity, inhibitor		100 µM, unpurified compound	inhibition	83.7%
O=c1cnnc(Nc2ccc(O)cc2)[nH]1	DNA dC->dU-editing enzyme APOBEC-3B	enzyme activity, inhibitor, HPLC			IC50	505 µM
Cc1ccc2c(c1)C(O)(CC(=O)c1ccc3c(c1)OCCO3)C(=O)N2 (stereo not drawn)	Uncharacterized protein	inhibitor, coupled colorimetric	Trypanosoma brucei		IC50	> 100 µM
N[C@@H](Cc1c[nH]c2ccc(OCc3ccc(I)cc3)cc12)C(=O)O	SLC7A5 (Homo sapiens, UniProt Q01650)	transporter uptake, inhibitor, radiometric			IC50	22.7 µM
Cc1nn(-c2cccc(N)c2)c(=O)c2cnc(Nc3ccc(N4CCNCC4)cc3)nc12	JAK1 (Homo sapiens, UniProt P23458)	enzyme activity, inhibitor			IC50	> 10 µM
COP(=O)(O)OCCCCCCNC(=O)c1cc2ccccc2oc1=O	PDE6D (Homo sapiens, UniProt O43924)				IC50	no binding
C[N+](C)(C/C=C/CN1C(=O)c2ccccc2C1=O)CCCN1c2ccccc2CCc2ccc(Cl)cc21	ppa	inhibitor, counter-screen, coupling enzyme alone			IC50	34.3 µM
O=Cc1ccc(-c2ccc(O)cc2)c(C(=C2C=CC(=O)C=C2)c2ccc(O)cc2)c1C#Cc1ccc(O)cc1	PDE4D (Homo sapiens, UniProt Q08499)	enzyme activity, inhibitor			IC50	0.338 µM
Cc1nc(Nc2ccc3c(c2)/C(=C/c2ccccc2Cl)C(=O)N3C)c2ccccc2n1	PIK3CD (Homo sapiens, UniProt O00329)	enzyme activity, inhibitor, ADP detection			IC50	0.362 µM
COc1ccc(C2=Nn3c(nnc3C3CCCCC3)SC2)cc1OC	ppa	enzyme activity, inhibitor			IC50	575 µM
O=C(O)Cc1cc2c(cc1C(=O)c1ccccc1Cl)OCO2	Gria1 (Rattus norvegicus, UniProt P19490)	glutamate-evoked current, inhibitor, whole-cell patch clamp	HEK293T, homomeric receptor		IC50	4.47 µM
O=C(O)c1ccc(Nc2c(-c3ccc(CON=Cc4cccc5cccc(C(=O)O)c45)cc3)nc3cc(-c4ccccc4)ccn23)cc1	TDP1	enzyme activity, inhibitor		100 µM, unpurified compound	inhibition	92.8%
O=C(c1cccc(-c2cc(NCCO)ncn2)c1)N1CCCC1c1ccccc1 (stereo not drawn)	DNA dC->dU-editing enzyme APOBEC-3B	enzyme activity, inhibitor, HPLC			IC50	757 µM
COc1ccccc1C1CCN(c2nc(C3(F)CC3)nc3c(Cl)cc(N(C)CCO)cc23)CC1	NTSR1 (Homo sapiens, UniProt P30989)	G protein activation, antagonist			IC50	0.765 µM
Cc1ccc2c(c1Br)C(O)(CC(=O)c1ccc(F)cc1)C(=O)N2 (stereo not drawn)	Uncharacterized protein	inhibitor, coupled colorimetric	Trypanosoma brucei		IC50	> 100 µM
